Measurements collected from several papers.
Protocols differ between the studies behind these lines. “And” joins repeats or separate records; there may be more than shown. Numbers after ± are the reported error. ≈ marks a conversion by molar mass, not a printed value.

SMILES	assay	system	setting	scale	quantity	value
O=C([O-])CN1CCN(CC(=O)[O-])CCN(CC(=O)NCCc2ccc3c(c2)C2C=CCC2C(c2cc4c(cc2Br)OCO4)N3)CCN(CC(=O)[O-])CC1.[111In+3] (stereo not drawn)		mouse, Hec50 endometrial tumour, heart	4 h post injection		tissue uptake	0.17 ± 0.02 %ID/g
Cc1nc2cccc(OCC(C)(C)C(=O)NC(C)C)c2c(N)c1C(=O)O.O=P(O)(O)O		male Sprague-Dawley rat, plasma	oral gavage, 30 mg/kg single dose		dose-normalised Cmax	1.29 ng/mL/mg/kg
Cc1nc(-c2ccc(NC(=O)c3cccs3)cc2Cl)no1		PBS	24 h, pH 7.4, room temperature		thermodynamic solubility	0.0566 ± 0.0095 mg/mL (≈ 177 µM)
Cc1cc(C(=O)N[C@@H](CO)CC(C)C)ccc1CO	LC-MS	human liver microsomes	10 µM of parent drug, 20 min, pH 7.4, with: NADPH	baseline: parent drug at time zero	metabolite peak area	0.1%
NC12CNCCNCC(NCc3ccc(CNC(=O)CCCC(=O)NCc4ccc(-c5nncnn5)cc4)cc3)(CNCCNC1)CNCCNC2.[64Cu+2]	OLINDA dosimetry	brain	48 h pretargeting interval, with: huA33-TCO pretargeting		mean absorbed dose	0.0339 rad/mCi
Cn1c(=O)oc2ccc(-c3ccc(CC(C#N)NC(=O)C4CNCCCO4)c(F)c3)cc21 (stereo not drawn)		human	oral, 40 mg once daily, TEAE, multiple ascending dose		acne incidence	0%
CC1C(c2c(F)ccc(F)c2F)CC(N[14C](=O)c2cnc3c(c2)CC2(C3)C(=O)Nc3ncccc32)C(=O)N1CC(F)(F)F (stereo not drawn)	item: total radioactivity	human, plasma	oral, dose not given, single dose, 14C-labelled, LLOQ 73 dpm/mL		last time with quantifiable radioactivity	≤ 48 h
N=C(N)NCCC[C@@H]1NC(=O)[C@H](Cc2c[nH]c3ccccc23)NC(=O)[C@@H](CC2CCCCC2)NC(=O)[C@@H]2CCCN2C(=O)[C@@H](NC(=O)CCc2ccccc2)CCCNC1=O		C57BL/6J mouse, spinal cord	intravenous, 1 mg/kg, single dose, two-compartment model		alpha distribution rate constant	27.4 h⁻¹
O=C([O-])CN(CCN(CC(=O)[O-])Cc1cc(CCC(=O)NCCCCCC(=O)NCCCC[C@H](NC(=O)N[C@@H](CCC(=O)O)C(=O)O)C(=O)O)ccc1O)Cc1cc(CCC(=O)O)ccc1[O-].[68Ga+3]	PET/CT	prostate cancer patients, gluteal muscle	60 min post-injection		SUVmean	0.44 ± 0.1
CCCCCCCC(=O)OC[C@H](NC(=O)[C@H](CO)NC(=O)CN)C(=O)N[C@@H](Cc1ccccc1)C(=O)N[C@@H](CC(C)C)C(=O)N[C@@H](CO)C(=O)N1CCC[C@H]1C(=O)N[C@@H](CCC(=O)O)C(=O)N[C@@H](Cc1cnc[nH]1)C(=O)N[C@@H](CCC(N)=O)C(=O)N[C@@H](CCCNC(=N)N)C(=O)N[C@H](C(=O)N[C@@H](CCC(N)=O)C(=O)N[C@@H](CCC(N)=O)C(=O)N[C@@H](CCCNC(=N)N)C(=O)N[C@@H](CCCCN)C(=O)N[C@@H](CCC(=O)O)C(=O)N[C@@H](CO)C(=O)N[C@@H](CCCCN)C(=O)N[C@@H](CCCCN)C(=O)N1CCC[C@H]1C(=O)N1CCC[C@H]1C(=O)N[C@@H](C)C(=O)N[C@@H](CCCCN)C(=O)N[C@@H](CC(C)C)C(=O)N[C@@H](CCC(N)=O)C(=O)N1CCC[C@H]1C(=O)N[C@@H](CCCNC(=N)N)C(=O)O)C(C)C	beat-to-beat plethysmography	human chronic HFrEF patients	intravenous infusion, 0.1 µg/kg/min, after 60 min infusion		blood pressure dBP	56.5 ± 8.7 mm Hg
Cn1ccn(N=Cc2ccccc2SSc2ccccc2C=Nn2ccn(C)c2=S)c1=S	optical absorption spectra	PBS	pH 7.40, 0.15% DMSO		hydrolytic stability period	≥ 8 h
CN1CCC[C@]1(C)/C=C/S(=O)(=O)NC(=O)Nc1c2c(cc3c1CCC3)CCC2		human, plasma	oral, 12.5 mg twice daily, day 1, multiple ascending dose		AUC(0-24)	16.9 µg·h/mL
CC(C)(Sc1ccncc1-c1ccc(C#N)c2ccccc12)C(=O)OC1OC(C(=O)O)C(O)C(O)C1O (stereo not drawn)		adult men, urine	oral, 15 mg verinurad, mild renal impairment	baseline: impaired over normal renal function	renal clearance ratio (0-72 h)	81%
C#CCOc1ccc(/C=C2\SC(=O)N(CC(=O)NCc3ccccc3)C2=O)cc1	inverse Kirkwood-Buff integrals	binary solvent mixture	298.15 K, mole fraction x1 0.10		Kirkwood-Buff integral G2,3	-544 cm³/mol
COCC1CN(C2CCN(c3cc(OC)c(Nc4ncc(Br)c(Nc5ccc6c(c5P(C)(C)=O)OCCO6)n4)cc3C)CC2)C1		human patients	oral, 10 to 240 mg once daily		treatment-related Diarrhea, all grades	22.2%
CN(C)c1ccc(-c2nc3ccc(OCCCCCN4CCN5CCN(CC4)CC(=O)[O][Al]([18F])[O]C(=O)C5)cc3s2)cc1		ICR mouse	intravenous, dose not given, 30 min		intestine uptake	14.2 ± 4.03 % injected dose/organ
CC(C)C[C@H](NC(=O)[C@H](CCC1CCCCC1)NC(=O)[C@@H]1CCCN1C(=O)c1ccc(F)cc1)C(=O)NC(C)(C)C(=O)N[C@@H](CC(C)C)C(=O)N[C@@H](CC(C)C)C(=O)NC(C)(C)C(=O)NC(C)(C)C(=O)NCCC(=O)NC1(CN(C)C)CCC1		mouse Balb/c male, liver microsomes	2 µM, 40 min, pH 7.4		remaining compound	> 80%

SMILES	assay	system	setting	scale	quantity	value
CCCC[C@H](NC(=O)CNC(=O)CNC(=O)CN1CCN(CC(=O)O)CCN(CC(=O)O)CC1)C(=O)N[C@H]1CC(=O)NCCCC[C@@H](C(N)=O)NC(=O)[C@H](Cc2c[nH]c3ccccc23)NC(=O)[C@H](CCCNC(=N)N)NC(=O)[C@@H](Cc2ccccc2)NC(=O)[C@H](Cc2c[nH]cn2)NC1=O [copper-64 labelled]		female C57 mouse, B16/F1 melanoma	intravenous, 0.037 MBq, 24 h	baseline: tumour over heart	uptake ratio	32.7
O=C([O-])CN1CCN(CC(=O)[O-])CCN(CC(=O)NC[C@H]2CC[C@H](C(=O)N[C@H](Cc3cnc4ccccc4c3)C(=O)NCCCC[C@H](NC(=O)N[C@@H](CCC(=O)O)C(=O)O)C(=O)O)CC2)CCN(CC(=O)[O-])CC1.[64Cu+2]	PET/CT dosimetry	healthy human volunteers, heart			absorbed dose	0.0198 mGy/MBq
Oc1c(Br)cc(Br)c2nc3cc(SC(F)(F)F)ccc3nc12		human red blood cells	200 µM, 1 h, pH 7.2, 37 °C		hemolysis	≤ 1%
C=CC(=O)Nc1cc(Nc2nccc(-c3c[nH]c4ccccc34)n2)c(OC)cc1N(C)CCN(C)C	UHPLC-MS/MS	human, NSCLC patients, plasma	oral, 80 mg daily, steady state, at least 14 d treatment		median trough concentration	20 ng/mL
CC(C)(O)c1ncc([S@](N)(=O)=NC(=O)Nc2c3c(cc4c2CCC4)CCC3)s1		healthy human, urine and plasma	oral, day 1, multiple ascending dose		renal clearance	0.06 to 0.0833 mL/min
Cc1ccc(OCC(=O)N(Cc2cccs2)c2ccn[nH]2)cc1		beagle dog, male, plasma	oral gavage, 100 mg/kg		Tmax	1.67 h
C=C(c1ccc(C(=O)O)c(F)c1)c1cc2c(cc1C)C(C)(C)C=CC2(C)C		Sprague-Dawley rat, male	oral, 100 mg/kg, 6 h, sesame oil vehicle		blood cholesterol	97 ± 10.4 mg/dL
COc1cc(F)cc(-c2nc3ccc(C(=O)NCCCN(C)C)cc3n2C2CCC2)c1					dynamic solubility	186 µM
[11CH3]c1ccc2nc(C3CCC3)n(-c3ccc4[nH]ncc4c3)c2n1		human male, small intestine			absorbed radiation dose	13.7 µSv/MBq
CC(C)(Sc1cc[n+]([O-])cc1-c1ccc(C#N)c2ccccc12)C(=O)OC1OC(C(=O)O)C(O)C(O)C1O (stereo not drawn)		urine	oral, 15 mg, severe renal impairment	baseline: normal renal function	renal clearance decrease	88% and ~90%
CC(C)c1cnc(-c2cc(Cl)ccc2F)cc1Nc1ccncc1C(=O)NC(CO)CO		patients, phase I monotherapy	oral, dose not given, grade 5		patients with ALT increase	0%
CCCC[C@@H]1NC(=O)[C@@H](NC(=O)[C@H](CCC(=O)O)NC(=O)CNC(=O)CN2CCN(CC(=O)O)CCN(CC(=O)O)CCN(CC(=O)O)CC2)CCCCNC(=O)C[C@@H](C(N)=O)NC(=O)[C@H](C(C)C)NC(=O)[C@@H]2CCCN2C(=O)[C@H](CCCNC(=N)N)NC(=O)CNC(=O)[C@H](Cc2c[nH]c3ccccc23)NC(=O)[C@H](CCCNC(=N)N)NC(=O)[C@@H](Cc2ccccc2)NC(=O)[C@H](Cc2c[nH]cn2)NC(=O)[C@H](CCC(=O)O)NC1=O [gallium-67 labelled]		normal C57 mice, bone	intravenous, 0.037 MBq/mouse, 2 h		tissue uptake	0.12 ± 0.08 %ID/g
O=C(CCCCC[N+]#[C][99Tc-5]([C]#[N+]CCCCCC(=O)N[C@H]1C(O)O[C@H](CO)[C@@H](O)[C@@H]1O)([C]#[N+]CCCCCC(=O)N[C@H]1C(O)O[C@H](CO)[C@@H](O)[C@@H]1O)([C]#[N+]CCCCCC(=O)N[C@H]1C(O)O[C@H](CO)[C@@H](O)[C@@H]1O)([C]#[N+]CCCCCC(=O)N[C@H]1C(O)O[C@H](CO)[C@@H](O)[C@@H]1O)[C]#[N+]CCCCCC(=O)N[C@H]1C(O)O[C@H](CO)[C@@H](O)[C@@H]1O)N[C@H]1C(O)O[C@H](CO)[C@@H](O)[C@@H]1O (stereo partly drawn)	SPECT	BALB/c nude mouse PANC-1 xenograft		baseline: kidney over tumour	kidney/tumour ratio	1.64
O=C(CCc1cc(O)c(O)c(O)c1)NCCCCCCCCCC[P+](c1ccccc1)(c1ccccc1)c1ccccc1		human red blood cells	1 h, 37 °C		HC10	> 32 µg/mL
CC(C)C[C@@H](NC(=O)[C@H](NC(=O)[C@H]1CCCN1)[C@H](C)O)C(=O)N[C@H](Cc1c[nH]cn1)C(=O)N[C@@H](C(=O)N[C@H](Cc1c[nH]cn1)C(=O)N[C@H](CC(N)=O)C(=O)N[C@H](CCCNC(=N)N)C(=O)N[C@H](CCCNC(=N)N)C(=O)N[C@H](CCCNC(=N)N)C(=O)N[C@H](CCCNC(=N)N)C(=O)N[C@H](CCCNC(=N)N)C(N)=O)[C@H](C)O		Beagle dog, CSF	oral, 20 mg/kg		tmax	8 ± 8 h
CC(C)[C@H](NC(=O)CNC(=O)[C@H](CCC(N)=O)NC(=O)[C@H](C)N)C(=O)O		human	10 mg/kg single dose, LOQ 0.5 ng/mL		time to concentration below LOQ	45 min

For quick reference, copied from above:
SMILES	assay	system	setting	scale	quantity	value
CC(C)C[C@@H](NC(=O)[C@H](NC(=O)[C@H]1CCCN1)[C@H](C)O)C(=O)N[C@H](Cc1c[nH]cn1)C(=O)N[C@@H](C(=O)N[C@H](Cc1c[nH]cn1)C(=O)N[C@H](CC(N)=O)C(=O)N[C@H](CCCNC(=N)N)C(=O)N[C@H](CCCNC(=N)N)C(=O)N[C@H](CCCNC(=N)N)C(=O)N[C@H](CCCNC(=N)N)C(=O)N[C@H](CCCNC(=N)N)C(N)=O)[C@H](C)O		Beagle dog, CSF	oral, 20 mg/kg		tmax	8 ± 8 h
CC(C)[C@H](NC(=O)CNC(=O)[C@H](CCC(N)=O)NC(=O)[C@H](C)N)C(=O)O		human	10 mg/kg single dose, LOQ 0.5 ng/mL		time to concentration below LOQ	45 min
